Results collected from several papers.
A part holds a random share of what one study measured.

Series 1
Target: RING finger protein unkempt homolog, zinc fingers 1-6, GST-SBP tag (UNK, Homo sapiens, UniProt Q9C0B0, residues 30-357)
Sequence of UniProt Q9C0B0 (30-357, looked up): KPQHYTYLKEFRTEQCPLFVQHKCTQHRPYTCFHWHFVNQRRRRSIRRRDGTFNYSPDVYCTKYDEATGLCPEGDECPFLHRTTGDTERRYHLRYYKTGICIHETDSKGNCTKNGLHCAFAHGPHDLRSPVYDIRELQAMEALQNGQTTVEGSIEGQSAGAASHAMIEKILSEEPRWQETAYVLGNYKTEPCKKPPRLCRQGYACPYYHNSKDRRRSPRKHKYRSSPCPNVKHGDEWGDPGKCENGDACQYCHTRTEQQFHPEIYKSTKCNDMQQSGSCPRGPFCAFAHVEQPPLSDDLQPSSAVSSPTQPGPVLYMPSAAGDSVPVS
Method: RNA Bind-n-Seq
Form: RNA
Matrix: in vitro
Tested at: not given
Setting: RNA with constant flanks, human and mouse sites, ends assumed
Reference: input RNA pool
Direction: higher = stronger binding
Endpoint: bound/input enrichment
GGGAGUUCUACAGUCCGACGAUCUCCCAAAUCCAGCAGCUAGAAGGAGCCUUGAGACAAACACUCCACACACAGGGAAGGCGAUAACAUUGUACAUUGGUUUACAUUUUUUCCCCCUGUGGAUUUUUCUAGAGGUCAUAGUGCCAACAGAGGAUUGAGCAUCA: 0.428 ratio
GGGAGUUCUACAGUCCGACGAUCGAAGAAAUUUUUACUUCACUUGCAAGAUUACCAACUAGCAAGAGAAGUUUAAGGAAUUUCAGGUUAAAUAGUAGUGAUGUGGAUGGAGAACCUAUGUAUAUUCAGAUGGUUACAGCUCUACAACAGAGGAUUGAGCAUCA: 0.239 ratio
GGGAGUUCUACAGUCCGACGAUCCUACAAGGAGGUGAAGGACAAGCUCCUACAAGGCAGGCAGUAUUGGGUGCAGGCUUACCUAUUUCUACUCCAUGUACCACCAUAAACAAAGUUUGUGCUUCAGGAAUGAAAGCCAUCAUGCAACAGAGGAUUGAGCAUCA: 0.162 ratio
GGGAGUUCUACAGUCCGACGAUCAUUUGAUACUAAUCUGUCUGUUUGUUUGUGGAUUUUGAGAAAUAUUUGCUUAACUACCCAAAUAGGAUUUCUGGUAUUAAAUGGCCUUUGGGUCCUAAAAGCUUUUUUUAACUUCUUGCUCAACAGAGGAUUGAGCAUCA: 1.82 ratio
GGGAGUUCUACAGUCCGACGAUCUGCUUCUUUUUUUAUCCAUGUAAUGUGUUGCCUUUAAAAACAAAAAUGAUGACUAAAAUAAUGUGUGAGGUGGUUCAUCCCUAAGAAGUCAACGGAAGGUCACUUCAAUCGUACCCUUCUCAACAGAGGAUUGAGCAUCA: 0.26 ratio

Series 2
Target: Prothrombin, mature alpha-thrombin (F2, Homo sapiens, UniProt P00734)
Method: aptamer microarray, sandwich
Form: DNA with 2'F-ANA
Matrix: in vitro
Tested at: 200 nM
Setting: whole 15-mer aptamer, many near background
Added: Cy3 exosite-II aptamer, 400 nM
Direction: higher = stronger binding
Endpoint: mean fluorescence intensity
Oligonucleotide: GGTTGGTGTGGTTGG
2'F-ANA at 3 7 8 9 10 11 13 14 15: 426 a.u.
2'F-ANA at 5 8 9 10 11 13 14 15: 47.2 a.u.
2'F-ANA at 3 4 5 7 8 9 10 11 12 13: 58.5 a.u.
2'F-ANA at 2 7 8 9 12: 840 a.u.
2'F-ANA at 1 2 4 7 8 11 12 13 14 15: 64.1 a.u.
2'F-ANA at 4 7 8 14 15: 149 a.u.
2'F-ANA at 1 4 5 7 9 11 13: 48.5 a.u.

Series 3
Target: Histone acetyltransferase KAT6A, winged helix 2, GST fusion (KAT6A, Homo sapiens, UniProt Q92794, residues 85-181)
Method: protein binding microarray
Form: double-stranded DNA, one strand shown
Matrix: in vitro
Tested at: not given
Setting: 8-mer, flanks averaged, mean of 2 arrays, mostly near background
Reference: not given
Direction: higher = stronger binding
Endpoint: E-score
Construct (chain): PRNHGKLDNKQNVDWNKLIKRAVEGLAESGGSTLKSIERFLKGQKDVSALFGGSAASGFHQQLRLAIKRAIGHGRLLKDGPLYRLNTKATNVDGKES
GAAAAGAC: -0.0426
ATTACCGA: -0.101
GCGGACAC: 0.202
ATGTAGTG: -0.14
CCGATTAG: 0.00932
ATTCCTGA: -0.0924
GGTACTTA: -0.104
ACGAACAG: 0.0953
ATTAGAGC: 0.0893

Other studies, line by line
PhoQ, residues 284 288 289 292 302 303 SACGEM — fold induction (PhoP, residues 12 14 15 18 19 AQCLL (Escherichia coli, UniProt P23836); Sort-seq, item: YFP reporter; E. coli; PhoQ-PhoP variant library, added: 10 µM Mg2+; reference: high Mg2+ state, higher = stronger signaling): 4.24

A few entries again (series 1):
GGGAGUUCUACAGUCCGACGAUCUCCCAAAUCCAGCAGCUAGAAGGAGCCUUGAGACAAACACUCCACACACAGGGAAGGCGAUAACAUUGUACAUUGGUUUACAUUUUUUCCCCCUGUGGAUUUUUCUAGAGGUCAUAGUGCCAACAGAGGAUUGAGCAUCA: 0.428 ratio
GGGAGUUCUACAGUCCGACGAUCCUACAAGGAGGUGAAGGACAAGCUCCUACAAGGCAGGCAGUAUUGGGUGCAGGCUUACCUAUUUCUACUCCAUGUACCACCAUAAACAAAGUUUGUGCUUCAGGAAUGAAAGCCAUCAUGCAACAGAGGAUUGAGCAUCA: 0.162 ratio
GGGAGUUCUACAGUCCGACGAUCGAAGAAAUUUUUACUUCACUUGCAAGAUUACCAACUAGCAAGAGAAGUUUAAGGAAUUUCAGGUUAAAUAGUAGUGAUGUGGAUGGAGAACCUAUGUAUAUUCAGAUGGUUACAGCUCUACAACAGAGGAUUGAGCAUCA: 0.239 ratio
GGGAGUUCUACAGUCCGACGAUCUGCUUCUUUUUUUAUCCAUGUAAUGUGUUGCCUUUAAAAACAAAAAUGAUGACUAAAAUAAUGUGUGAGGUGGUUCAUCCCUAAGAAGUCAACGGAAGGUCACUUCAAUCGUACCCUUCUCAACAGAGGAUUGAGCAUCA: 0.26 ratio
